Experimental data pooled from the literature.
Parts stem from different laboratories: compare values within a part only.

Block 1 — method: universal PBM; molecule type: double-stranded DNA, one strand shown; matrix: in vitro; concentration: not given; direction: higher = stronger binding
Target: Sal-like protein 4, full length isoform B (SALL4, Homo sapiens, UniProt Q9UJQ4-2, residues 1-616)
Notes: 8-mer, flanks averaged, mean of replicates
Construct (chain): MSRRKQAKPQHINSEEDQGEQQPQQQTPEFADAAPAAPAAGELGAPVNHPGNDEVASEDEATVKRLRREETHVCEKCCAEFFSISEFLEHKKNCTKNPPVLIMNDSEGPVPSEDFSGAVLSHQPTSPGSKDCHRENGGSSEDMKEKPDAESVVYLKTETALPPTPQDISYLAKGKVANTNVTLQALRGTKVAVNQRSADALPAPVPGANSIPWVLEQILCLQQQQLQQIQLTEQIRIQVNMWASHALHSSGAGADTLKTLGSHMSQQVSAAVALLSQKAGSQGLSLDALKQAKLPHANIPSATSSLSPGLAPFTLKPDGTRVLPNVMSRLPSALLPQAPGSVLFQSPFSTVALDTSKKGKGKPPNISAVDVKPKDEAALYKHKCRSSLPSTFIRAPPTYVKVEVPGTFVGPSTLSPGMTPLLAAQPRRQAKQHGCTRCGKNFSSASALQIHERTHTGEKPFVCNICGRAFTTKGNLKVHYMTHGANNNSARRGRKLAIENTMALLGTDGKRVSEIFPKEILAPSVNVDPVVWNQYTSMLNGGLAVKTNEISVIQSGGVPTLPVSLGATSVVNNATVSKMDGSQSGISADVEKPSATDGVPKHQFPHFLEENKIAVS
Strand | E-score
CTACGATA | 0.154
ATCAGGGA | -0.0619
AGTATCGG | 0.0346
GCATAATA | 0.392
CCTCAGGC | -0.314
CCCTCTAC | -0.205
CCGACGAC | -0.121
TATTGCCA | 0.202
ACAAGCTC | -0.109
ATCCAGAA | 0.159
ATCGAGCA | -0.107
ATACTACG | 0.0739
CGTATTCA | 0.255
GAGTTCAA | 0.143
CCTTGTAG | -0.0195
CTGTTGAA | 0.118
ATGATTGC | 0.22
ACAATCTC | 0.0577
AATGACAA | 0.235
ATGGCGTG | 0.0205
CAGCCGCA | -0.338
ATTGAGAA | 0.218
CCACAAGG | -0.267
CCCTTGAG | -0.204
AAAATGAC | 0.228

Block 2 — method: aptamer microarray, sandwich; molecule type: DNA with 2'F-ANA; matrix: in vitro; concentration: 200 nM; added: Cy3 exosite-II aptamer, 400 nM; direction: higher = stronger binding; strand: GGTTGGTGTGGTTGG
Target: Prothrombin, mature alpha-thrombin (F2, Homo sapiens, UniProt P00734)
Notes: whole 15-mer aptamer, many near background
Modification | mean fluorescence intensity
2'F-ANA at 1 3 4 8 10 12 15 | 82.5 a.u.
2'F-ANA at 2 3 4 5 7 9 10 13 15 | 333 a.u.
2'F-ANA at 2 3 6 7 9 10 11 12 13 14 | 225 a.u.
2'F-ANA at 2 8 9 12 14 | 203 a.u.
2'F-ANA at 2 3 4 5 8 9 14 15 | 49.6 a.u.
2'F-ANA at 1 2 3 4 5 6 13 14 15 | 51.1 a.u.
2'F-ANA at 2 3 6 7 8 10 11 12 13 15 | 327 a.u.
2'F-ANA at 1 2 3 7 12 15 | 451 a.u.
2'F-ANA at 1 5 7 8 11 12 13 14 15 | 46.2 a.u.
2'F-ANA at 1 3 4 6 8 9 10 11 12 | 92.2 a.u.
2'F-ANA at 1 2 6 7 10 12 13 14 15 | 48 a.u.
2'F-ANA at 4 5 7 9 11 12 13 15 | 67.6 a.u.
2'F-ANA at 1 2 3 7 9 | 231 a.u.
2'F-ANA at 2 3 7 8 10 12 15 | 506 a.u.
2'F-ANA at 7 8 11 12 | 845 a.u.
2'F-ANA at 2 3 4 8 11 12 13 | 624 a.u.
2'F-ANA at 4 5 6 8 9 | 116 a.u.
2'F-ANA at 2 3 5 8 13 14 15 | 58.7 a.u.
2'F-ANA at 6 11 13 14 | 159 a.u.
2'F-ANA at 3 6 11 | 876 a.u.
2'F-ANA at 3 4 5 6 10 12 14 15 | 48.5 a.u.
2'F-ANA at 4 6 7 8 10 12 13 | 85.4 a.u.
2'F-ANA at 2 3 4 8 | 787 a.u.
2'F-ANA at 1 3 7 8 9 10 11 12 | 112 a.u.

Block 3 — method: protein binding microarray; molecule type: double-stranded DNA, one strand shown; matrix: in vitro; concentration: not given; reference: not given; direction: higher = stronger binding
Target: Histone acetyltransferase KAT6A, winged helix 2, GST fusion (KAT6A, Homo sapiens, UniProt Q92794, residues 85-181)
Notes: 8-mer, flanks averaged, mean of 2 arrays, mostly near background
Residues (chain): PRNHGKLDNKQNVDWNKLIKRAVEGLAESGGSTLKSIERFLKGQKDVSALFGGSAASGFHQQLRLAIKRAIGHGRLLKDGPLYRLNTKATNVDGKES
Strand | E-score
ACCACAAG | 0.0192
AGTCTGCA | -0.125
ACTCCAAA | -0.00948
CCTTTTAA | -0.119
ACCGGTAT | -0.0541
CGACTCCA | 0.00786
CTTGAGAC | -0.233
AGAATACA | -0.00788
CCGACTAG | -0.119
GAACAGGC | -0.044
CTCCAGAG | 0.0938
ATGCCGTC | 0.162
AGAACTTA | -0.0228
ACGAGCTC | 0.115
CACTACAC | -0.0273
TAAGCCAA | -0.131
CAACACAA | 0.0907
AATCCCAC | -0.0253
ACTGAGAG | -0.0674
ATGCAGAG | 0.0473

Block 4 — method: RNA Bind-n-Seq; molecule type: RNA; matrix: in vitro; concentration: 365 nM; reference: no-protein control; direction: higher = stronger binding
Target: RNA binding protein fox-1 homolog 2, RRM domain, GST-SBP tag (RBFOX2, Homo sapiens, UniProt O43251-10, residues 100-194)
Notes: natural RNA segment, single round, ends assumed
All sequences stand within: GGGAGUUCUACAGUCCGACGAUC … UGGAAUUCUCGGGUGCCAA
Target sequence (chain): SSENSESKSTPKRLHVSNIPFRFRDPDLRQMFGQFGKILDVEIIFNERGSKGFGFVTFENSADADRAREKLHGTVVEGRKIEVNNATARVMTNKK
Strand | RBNS enrichment (R)
CAACUGAAAUAAAAUAACCUAAAGUUUGCUACUAUGCUCUGAAGAUAAAGUGUGUUUUCAGGCUCAAUUAUUUCACCUUAAUGUAAUGUACUGUAAGAUUUUGUACUGAA | 0.886
GCUUGGGUCUCAGGGGAGAUAUGCUUAAGGCCAGAGCUCUUCCUCAGUAUUUGAUUUUUCCAGUGUUUGUUUUUUAAAAAACUGACAGGUGCUACAUUUCUAUCUGUUGG | 1.26
CACCAUGGAGCCGAAGCCCAGAGACCCUGUCUCAGGCCUACGCAACAGCCACGAAAUAUUCUGAAGGAAAAUGAAACCAAUUAAGAAGACAAAGCCUAGGGAGGGACUGG | 0.316
CCUUCUCCCAGGGCCCGGCUACCCAGGGAGGAGGAGUCUGGUGUAGCCAACAUUCCUGCCCUAACCCUGCCCAUCACCAGCUGGCUGGGCUGGUAUUUAUCUGCAAGGUU | 0.407
CCCAGGCUAUUACAGGCAUAUUAUGGACAAAUAUAAAGGCCAACUAGUGAUCCCAGCCCAAGAGGUUCAGGGAAGUCUUAUGAAGGAUUUGUCUCAGCUGAGCCUGACAG | 0.404
AAAUUCCAUUUCAUCGGGAUGGAACUGAAGGAUUUUAUUCUAUAAAGCGGCCCUGGUUGAAUCUGGCAAUUCUUUUUGCCAAGAUCCCUAGCAGAAGAUUUAGCCAUGUC | 0.271
GAUUUUAAAUGUGUCUAAGGAGAAAACAGAGUUGAAUUAUGGCGUUAAAAUAAAAUUUACUACCAAAAUAUCAAGACCUCUGUCCUCACGGUUAUAUAGAAGCGCUGGUC | 0.286
UUGCAUGAAGCUCCAGGAUUACAGUAAACUAAAUCAGUGCAAAAUAAAGUUUAUUUUAUAAAAGAAAGGCAAUAGACUAAUUUUUAUCUUAUGCUAAAUAACUUAUAUAG | 5.54
